Measurements collected from several papers.
Lines come from different studies, so protocols differ. Numbers after ± are the reported error.

SMILES	test system	conditions	scale	measurement	result
CN(C)C(=O)c1cc2cnc(Nc3ccc(N4CCNCC4)cn3)nc2n1C1CCCC1	human, plasma	oral, 200 mg once daily, steady state	relative to: 600 mg once daily dose	AUC(tau) ratio	~10%
CC(C)[C@](O)(c1ccc2cc(OC(F)F)c(OC(F)F)cc2c1)c1c[nH]nn1	human, male, plasma	oral, 600 mg, cycle 2 day 1, steady state		AUC(tau)	55.4 ± 5.96 µg·h/mL
CC(C)(C)OC[C@@H]1C(=O)NCCN1C(=O)C[C@H](N)Cc1cc(F)c(F)cc1F	human	20 mg once daily, day 10		AUC(tau) at steady state	0.376 ± 0.0511 µg·h/mL
COC(=O)c1ccc2c(c1)NC(=O)/C2=C(\Nc1ccc(N(C)C(=O)CN2CCN(C)CC2)cc1)c1ccccc1	human moderate liver impairment, plasma	oral, 100 mg twice daily, geometric mean		AUC(tau) steady state	0.354 µg·h/mL
NC(=O)N1CCC(CC(=O)N2CCC([C@H]3c4ncc(Br)cc4CCc4cc(Cl)cc(Br)c43)CC2)CC1	human, plasma	oral, 100 mg twice daily, cycle 2 day 15, added: gemcitabine 1000 mg/m2		AUC(tau)	5.95 µg·h/mL
CC(C)(C)OC[C@@H]1C(=O)NCCN1C(=O)C[C@H](N)Cc1cc(F)c(F)cc1F	human, plasma	oral, 5 mg once daily, added: glimepiride 4 mg		AUC(tau) steady state	0.11 ± 0.0217 µg·h/mL
O=C(NC[C@H]1CN(c2ccc(N3CCOCC3=O)cc2)C(=O)O1)c1ccc(Cl)s1	human	20 mg once daily, day 3		AUC(tau)	3.05 ± 0.556 µg·h/mL
C[C@@H](c1nc(-c2ccc(C#N)cc2)cs1)[C@](O)(Cn1cncn1)c1cc(F)ccc1F	healthy humans, plasma	oral, 200 mg once daily, added: mycophenolate mofetil 1 g single dose		AUC(tau)	100 µg·h/mL
CCC1=C(C)CN(C(=O)NCCc2ccc(S(=O)(=O)NC(=O)N[C@H]3CC[C@H](C)CC3)cc2)C1=O	human, plasma	oral, 4 mg once daily, added: evogliptin 5 mg		AUC(tau) steady state	1.79 ± 0.653 µg·h/mL
Cc1ccc(C(=O)N2CCOC[C@H]2Cc2cccc(-n3nccn3)c2)c(-n2nccn2)c1	healthy human, plasma	oral, 100 mg initial dose, day 8		AUC(tau)	4.69 µg·h/mL
Nc1ccn([C@@H]2O[C@H](CO)[C@@H](O)C2(F)F)c(=O)n1	human cancer patients, plasma	intravenous, 750 mg/m^2, cycle 1 day 15, added: lonafarnib 150 mg twice daily		AUC(tau)	8.01 µg·h/mL
CCn1c(C(=O)c2cc(C)cc(C#N)c2)c(C(C)C)c(=O)[nH]c1=O	healthy humans, plasma	oral, 75 to 600 mg once daily, 7 days, range of dose-group means		AUC(tau) at steady state	3.7 to 10.2 µg·h/mL
